Experimental data pooled from the literature.
A part holds a random share of what one study measured. Substitutions count along the parent as printed.

Series 1 — method: protein-binding microarray; form: double-stranded DNA, one strand shown; sample: in vitro; tested at: not given; direction: higher = stronger binding
Target: Hepatocyte nuclear factor 3-beta, forkhead domain (FOXA2, Homo sapiens, UniProt Q9Y261, residues 142-269)
Notes: k-mer, scored over probes, only values ≥0.25
Residues (chain): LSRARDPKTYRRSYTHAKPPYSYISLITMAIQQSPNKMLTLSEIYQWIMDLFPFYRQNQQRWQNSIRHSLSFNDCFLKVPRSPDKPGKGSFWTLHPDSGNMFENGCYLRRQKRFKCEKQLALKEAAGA
The E-score of `ATTAACGA` is reported as 0.267.
The E-score of `AGATATAT` is reported as 0.304.
`ATATCAGA` gave an E-score of 0.319.
The E-score of `ACGATACA` is reported as 0.251.
The E-score of `GTGATAAC` is reported as 0.259.
`ACAAAGTA` gave an E-score of 0.268.
The E-score of `TATATAAA` is reported as 0.362.
The E-score of `AACTACAT` is reported as 0.297.

Series 2 — method: aptamer microarray, sandwich; form: DNA with 2'F-ANA; sample: in vitro; tested at: 200 nM; added: Cy3 exosite-II aptamer, 400 nM; direction: higher = stronger binding; sequence: GGTTGGTGTGGTTGG
Target: Prothrombin, mature alpha-thrombin (F2, Homo sapiens, UniProt P00734)
Notes: whole 15-mer aptamer, many near background
Under “mean fluorescence intensity”, `2'F-ANA at 1 2 3 6 7 9 11 14` is recorded as 66.9 a.u.
Under “mean fluorescence intensity”, `2'F-ANA at 3 4 6 7 8 9 10 11 12 14 15` is recorded as 167 a.u.
`2'F-ANA at 2 4 9 10 12`: “mean fluorescence intensity” 198 a.u.
`2'F-ANA at 2 4 6 8 10 14 15` — result for “mean fluorescence intensity”: 58.7 a.u.
Under “mean fluorescence intensity”, `2'F-ANA at 1 3 6 7 9 10 13 14` is recorded as 102 a.u.
For `2'F-ANA at 2 7 8 9 11 14 15`, “mean fluorescence intensity” read 142 a.u.
`2'F-ANA at 4 8 11 13 15`: “mean fluorescence intensity” 216 a.u.
For `2'F-ANA at 1 5 7 8 10 11 14`, “mean fluorescence intensity” read 42.3 a.u.

Single results of other studies
OGT: UDP-N-acetylglucosamine--peptide N-acetylglucosaminyltransferase 110 kDa subunit (OGT, Homo sapiens, UniProt O15294)
UniProt O15294, sequence (whole entry, looked up): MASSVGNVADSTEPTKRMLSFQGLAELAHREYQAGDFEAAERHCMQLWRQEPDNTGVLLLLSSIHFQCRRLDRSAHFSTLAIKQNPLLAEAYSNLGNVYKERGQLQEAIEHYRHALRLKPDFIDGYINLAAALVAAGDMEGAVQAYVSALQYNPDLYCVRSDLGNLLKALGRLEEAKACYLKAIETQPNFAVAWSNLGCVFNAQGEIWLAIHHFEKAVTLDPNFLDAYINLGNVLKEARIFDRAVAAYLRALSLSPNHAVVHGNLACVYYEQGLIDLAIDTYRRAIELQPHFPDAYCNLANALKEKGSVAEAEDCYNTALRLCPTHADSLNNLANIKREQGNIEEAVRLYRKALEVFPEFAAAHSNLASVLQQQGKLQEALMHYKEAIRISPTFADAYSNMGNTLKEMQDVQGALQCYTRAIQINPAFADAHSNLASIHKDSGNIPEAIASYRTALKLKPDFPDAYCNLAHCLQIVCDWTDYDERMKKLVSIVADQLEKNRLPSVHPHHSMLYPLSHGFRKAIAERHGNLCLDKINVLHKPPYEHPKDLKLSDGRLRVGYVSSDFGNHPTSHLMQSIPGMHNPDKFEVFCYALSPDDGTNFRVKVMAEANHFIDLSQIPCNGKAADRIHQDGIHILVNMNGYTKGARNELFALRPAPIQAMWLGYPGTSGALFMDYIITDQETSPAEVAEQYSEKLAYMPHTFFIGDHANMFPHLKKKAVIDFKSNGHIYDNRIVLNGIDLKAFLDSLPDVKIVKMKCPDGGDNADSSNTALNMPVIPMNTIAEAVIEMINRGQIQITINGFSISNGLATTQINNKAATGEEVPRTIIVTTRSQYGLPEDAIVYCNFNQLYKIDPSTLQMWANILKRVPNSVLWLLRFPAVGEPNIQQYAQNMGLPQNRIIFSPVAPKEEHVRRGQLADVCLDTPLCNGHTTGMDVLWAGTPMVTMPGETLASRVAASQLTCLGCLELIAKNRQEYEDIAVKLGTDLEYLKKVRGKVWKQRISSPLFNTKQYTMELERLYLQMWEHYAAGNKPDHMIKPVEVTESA
P1: PafA, mature enzyme, eGFP fusion (Elizabethkingia meningoseptica, UniProt Q9KJX5); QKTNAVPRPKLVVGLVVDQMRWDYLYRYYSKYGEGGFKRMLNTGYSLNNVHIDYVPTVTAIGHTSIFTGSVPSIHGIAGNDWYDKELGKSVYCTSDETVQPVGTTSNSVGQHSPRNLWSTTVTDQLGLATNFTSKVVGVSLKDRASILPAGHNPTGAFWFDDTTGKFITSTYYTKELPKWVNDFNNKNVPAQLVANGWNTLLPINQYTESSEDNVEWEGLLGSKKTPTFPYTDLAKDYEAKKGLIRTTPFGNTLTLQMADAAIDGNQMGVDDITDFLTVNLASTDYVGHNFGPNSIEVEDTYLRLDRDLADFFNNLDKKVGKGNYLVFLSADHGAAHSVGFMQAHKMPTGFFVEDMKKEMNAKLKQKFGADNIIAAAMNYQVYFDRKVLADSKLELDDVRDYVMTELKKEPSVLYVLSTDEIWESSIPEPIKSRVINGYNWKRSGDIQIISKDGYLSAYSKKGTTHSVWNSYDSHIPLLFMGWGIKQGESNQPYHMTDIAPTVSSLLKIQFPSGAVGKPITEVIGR
`P1 K10G`: “oxyanion analog dissociation constant” 2.03 µM (tungstate, free oxyanion; microfluidic competitive inhibition; in vitro, cell-free expressed; not given, derived from inhibition constants, unchanged parent 2230 nM; lower = stronger binding).
`NTPQYYRPYYQITVK` — result for “enrichment fold change”: 7.86 (OGT; binding, phage display NGS; peptide; concentration not given, panning round 2; reference: input library).
For `DTFDEAFLAAVRSHQG`, “binding enrichment score” read -0.00479 (human cyclin B1; peptide binding, yeast competitive growth sequencing; peptide, Saccharomyces cerevisiae, cyclin B1-Cln2 fusion; concentration not given, peptide tiling library; direction not given).
Under “oxyanion analog dissociation constant”, `P1 S295V` is recorded as over 827 µM (tungstate, free oxyanion; microfluidic competitive inhibition; in vitro, cell-free expressed; not given, derived from inhibition constants, unchanged parent 2230 nM; lower = stronger binding).
Under “enrichment fold change”, `WFPHQAHRADIISA` is recorded as 2.71 (OGT; binding, phage display NGS; peptide; concentration not given, panning round 2; reference: input library).
